{"data": "Literature values as cited in several papers", "note": "Protocols differ between the studies behind these lines."}
{"Compound": "COc1cc(OC)c(OC)cc1/C=C/C(=O)/C=C/c1cc2ccccc2cc1Cl", "cell line": "PC-3", "test": "cytotoxicity", "quantity": "IC50", "value": "3.12 µM"}
{"Compound": "CC(C)C[C@@H]1NC(=O)[C@H](C(C)C)NC(=O)[C@H](CO)NC(=O)CNC(=O)CNC(=O)[C@H](CCCNC(=N)N)NC(=O)[C@@H]2CCCN2C(=O)[C@@H](NC(=O)CC[C@H](NC(=O)c2ccc(N(C)Cc3cnc4nc(N)nc(N)c4n3)cc2)C(=O)O)C(C)(C)SSC[C@@H](C(=O)O)NC(=O)CNC(=O)[C@H]([C@@H](C)O)NC(=O)[C@H](C(C)C)NC1=O", "cell line": "MOLT-3", "conditions": "concentration not given", "scale": "relative to: methotrexate over cpd, fold lower than methotrexate", "quantity": "cytotoxicity ratio", "value": "45 fold"}
{"Compound": "O=C(O)c1cccc(CP(=O)(O)O)n1", "cell line": "BL-C-1 African green monkey kidney", "conditions": "concentration not given", "quantity": "cytotoxicity", "value": "not toxic"}
{"Compound": "CC[C@H](C)[C@@H]1NC(=O)CNC(=O)[C@@H]2CSSC[C@@H]3NC(=O)[C@H](Cc4ccc(O)cc4)NC(=O)[C@@H](NC(=O)[C@H](CC(C)C)NC(=O)[C@H](CC(C)C)NC(=O)CN)CSSC[C@@H](C(=O)N4CCC[C@H]4C(=O)N[C@@H](CCCNC(=N)N)C(=O)N[C@@H](CCCNC(=N)N)C(=O)O)NC(=O)[C@H](CSSC[C@H](NC(=O)[C@H](Cc4c[nH]cn4)NC(=O)CNC(=O)[C@H](CCCCN)NC(=O)[C@H](CCCNC(=N)N)NC3=O)C(=O)N[C@@H](CCCCN)C(=O)N[C@@H](CCCNC(=N)N)C(=O)NCC(=O)N[C@@H](CCC(=O)O)C(=O)N[C@@H](CCCNC(=N)N)C(=O)N[C@@H](C(C)C)C(=O)N[C@@H](CCCNC(=N)N)C(=O)NCC(=O)N[C@@H]([C@@H](C)O)C(=O)N2)NC(=O)[C@H](Cc2ccc(O)cc2)NC(=O)[C@H](CC(C)C)NC(=O)[C@H](Cc2ccccc2)NC(=O)[C@H](CCCNC(=N)N)NC1=O", "cell line": "RAW264.7", "conditions": "NG", "quantity": "cytotoxicity", "value": "not toxic"}
{"Compound": "Nc1c(C(=O)NCc2ccc(F)cc2F)c(=O)n(O)c2ncccc12", "cell line": "HOS", "test": "item: ATP level", "quantity": "CC50", "value": "> 250 µM"}
{"Compound": "CC[C@H](C)[C@H](NC(=O)[C@H](CCCCN)NC(=O)[C@H](CCC(=O)O)NC(=O)[C@H](CCCCN)NC(=O)[C@H](CO)NC(=O)[C@H](CCCCN)NC(=O)[C@H](CCCNC(=N)N)NC(=O)[C@H](Cc1ccccc1)NC(=O)[C@H](Cc1ccccc1)NC(=O)[C@H](CC(=O)O)NC(=O)CNC(=O)[C@H](CC(C)C)NC(=O)[C@@H](N)CC(C)C)C(=O)NCC(=O)N[C@@H](CCCCN)C(=O)N[C@@H](CCC(=O)O)C(=O)N[C@@H](Cc1ccccc1)C(=O)N[C@@H](CCCCN)C(=O)N[C@@H](CCCNC(=N)N)C(=O)N[C@H](C(=O)N[C@H](C(=O)N[C@@H](CCC(N)=O)C(=O)N[C@@H](CCCNC(=N)N)C(=O)N[C@H](C(=O)N[C@@H](CCCCN)C(=O)N[C@@H](CC(=O)O)C(=O)N[C@@H](Cc1ccccc1)C(=O)N[C@@H](CC(C)C)C(=O)N[C@@H](CCCNC(=N)N)C(=O)N[C@@H](CC(N)=O)C(=O)N[C@@H](CC(C)C)C(=O)N[C@H](C(=O)N1CCC[C@H]1C(=O)N[C@@H](CCCNC(=N)N)C(=O)N[C@H](C(=O)N[C@@H](CCC(=O)O)C(=O)N[C@@H](CO)C(=O)O)[C@@H](C)O)C(C)C)[C@@H](C)CC)C(C)C)[C@@H](C)CC", "cell line": "human peripheral blood leukocytes", "test": "cell death", "conditions": "10% FBS", "quantity": "cytotoxic concentration", "value": "> 125 µg/mL"}
{"Compound": "CN(C)CC/N=C1\\C[C@H]2CC[C@]1(C)C2(C)C", "cell line": "MDCK", "test": "cytotoxicity", "quantity": "CC50", "value": "> 2250 µM"}
{"Compound": "F[P-](F)(F)(F)(F)F.OCP(CO)CO.OCP(CO)CO.OCP(CO)CO.OCP(CO)CO.[Cu+]", "cell line": "human cancer cells", "scale": "relative to: cisplatin", "quantity": "cytotoxic potency ratio", "value": "> 40 fold"}
{"Compound": "C1CCCCCC2(CCCCC1)OOCCCOO2", "cell line": "Huh-7", "test": "cytotoxicity", "quantity": "CC50", "value": "0.5 to 9.3 µM"}
{"Compound": "CN(C)CCC/N=C1\\C[C@H]2CC[C@]1(C)C2(C)C", "cell line": "MDCK", "test": "cytotoxicity", "quantity": "CC50", "value": "> 2120 µM"}
{"note": "Excerpt of the above:"}
{"Compound": "F[P-](F)(F)(F)(F)F.OCP(CO)CO.OCP(CO)CO.OCP(CO)CO.OCP(CO)CO.[Cu+]", "cell line": "human cancer cells", "scale": "relative to: cisplatin", "quantity": "cytotoxic potency ratio", "value": "> 40 fold"}
{"Compound": "C1CCCCCC2(CCCCC1)OOCCCOO2", "cell line": "Huh-7", "test": "cytotoxicity", "quantity": "CC50", "value": "0.5 to 9.3 µM"}
